Experimental data of several laboratories.
Each line is one published result; not all experiments were run side by side.
Partner: itself
B1: tnsC 1-503 A225V (Escherichia coli, UniProt P05846); sequence looked up; chain MSATRIQAVYRDTGVEAYRDNPFIEALPPLQESVNSAASLKSSLQLTSSDLQKSRVIRAHTICRIPDDYFQPLGTHLLLSERISVMIRGGYVGRNPKTGDLQKHLQNGYERVQTGELETFRFEEARSTAQSLLLIGCSGSGKTTSLHRILATYPQVIYHRELNVEQVVYLKIDCSHNGSLKEICLNFFRALDRALGSNYERRYGLKRHGIETMLALMSQIANAHVLGLLVIDEIQHLSRSRSGGSQEMLNFFVTMVNIIGVPVMLIGTPKAREIFEADLRSARRGAGFGAIFWDPIQQTQRGKPNQEWIAFTDNLWQLQLLQRKDALLSDEVRDVWYELSQGVMDIVVKLFVLAQLRALALGNERITAGLLRQVYQDELKPVHPMLEALRSGIPERIARYSDLVVPEIDKRLIQLQLDIAAIQEQTPEEKALQELDTEDQRHLYLMLKEDYDSSLLIPTIKKAFSQNPTMTRQKLLPLVLQWLMEGETVVSELEKPSKSKKVS
B2: DPA 6-281 (Toxoplasma gondii, UniProt A0A7J6KBZ0); sequence looked up; chain IYKQFTSRTLLNFFEVAALTDGETNESVAAVCKIAAKDPAIVGVSVRPAFVRFIRQELVKSAPEVAGIKVCAAVNFPEGTGTPDTVSLEAVGALKDGADEIECLIDWRRMNENVADGESRIRLLVSEVKKVVGPKTLKVVLSGGELQGGDIISRAAVAALEGGADFLQTSSGLGATHATMFTVHLISIALREYMVRENERIRVEGINREGAAVRCIGIKIEVGDVHMAETADFLMQMIFENGPRSIVRDKFRVGGGFNLLKELRDCYESWDSVGVS
B3: TBK1 D135N/E355A (Homo sapiens, UniProt Q9UHD2); sequence looked up; chain MQSTSNHLWLLSDILGQGATANVFRGRHKKTGDLFAIKVFNNISFLRPVDVQMREFEVLKKLNHKNIVKLFAIEEETTTRHKVLIMEFCPCGSLYTVLEEPSNAYGLPESEFLIVLRDVVGGMNHLRENGIVHRNIKPGNIMRVIGEDGQSVYKLTDFGAARELEDDEQFVSLYGTEEYLHPDMYERAVLRKDHQKKYGATVDLWSIGVTFYHAATGSLPFRPFEGPRRNKEVMYKIITGKPSGAISGVQKAENGPIDWSGDMPVSCSLSRGLQVLLTPVLANILEADQEKCWGFDQFFAETSDILHRMVIHVFSLQQMTAHKIYIHSYNTATIFHELVYKQTKIISSNQELIYAGRRLVLEPGRLAQHFPKTTEENPIFVVSREPLNTIGLIYEKISLPKVHPRYDLDGDASMAKAITGVVCYACRIASTLLLYQELMRKGIRWLIELIKDDYNETVHKKTEVVITLDFCIRNIEKTVKVYEKLMKINLEAAELGEISDIHTKLLRLSSSQGTIETSLQDIDSRLSPGGSLADAWAHQEGTHPKDRNVEKLQVLLNCMTEIYYQFKKDKAERRLAYNEEQIHKFDKQKLYYHATKAMTHFTDECVKKYEAFLNKSEEWIRKMLHLRKQLLSLTNQCFDIEEEVSKYQEYTNELQETLPQKMFTASSGIKHTMTPIYPSSNTLVEMTLGMKKLKEEMEGVVKELAENNHILERFGSLTMDGGLRNVDCL
B4: At5g06450 2-206 (Arabidopsis thaliana, UniProt Q9FNG3); selenomethionine; chain ASFDGPKFKMTDGSYVQTKTIDVGSSTDISPYLSLIREDSILNGNRAVIFDVYWDVGFPETETKTKTSGWSLSSVKLSTRNLCLFLRLPKPFHDNLKDLYRFFASKFVTFVGVQIEEDLDLLRENHGLVIRNAINVGKLAAEARGTLVLEFLGTRELAHRVLWSDLGQLDSIEAKWEKAGPEEQLEAAAIEGWLIVNVWDQLSDE
B5: CRYBA1 (Homo sapiens, UniProt P05813-1); sequence looked up; chain METQAEQQELETLPTTKMAQTNPTPGSLGPWKITIYDQENFQGKRMEFTSSCPNVSERSFDNVRSLKVESGAWIGYEHTSFCGQQFILERGEYPRWDAWSGSNAYHIERLMSFRPICSANHKESKMTIFEKENFIGRQWEISDDYPSLQAMGWFNNEVGSMKIQSGAWVCYQYPGYRGYQYILECDHHGGDYKHWREWGSHAQTSQIQSIRRIQQ
B6: patZ (Escherichia coli, UniProt P76594); sequence looked up; chain MSQRGLEALLRPKSIAVIGASMKPNRAGYLMMRNLLAGGFNGPVLPVTPAWKAVLGVLAWPDIASLPFTPDLAVLCTNASRNLALLEELGEKGCKTCIILSAPASQHEDLRACALRHNMRLLGPNSLGLLAPWQGLNASFSPVPIKRGKLAFISQSAAVSNTILDWAQQRKMGFSYFIALGDSLDIDVDELLDYLARDSKTSAILLYLEQLSDARRFVSAARSASRNKPILVIKSGRSPAAQRLLNTTAGMDPAWDAAIQRAGLLRVQDTHELFSAVETLSHMRPLRGDRLMIISNGAAPAALALDALWSRNGKLATLSEETCQKLRDALPEHVAISNPLDLRDDASSEHYIKTLDILLHSQDFDALMVIHSPSAAAPATESAQVLIEAVKHHPRSKYVSLLTNWCGEHSSQEARRLFSEAGLPTYRTPEGTITAFMHMVEYRRNQKQLRETPALPSNLTSNTAEAHLLLQQAIAEGATSLDTHEVQPILQAYGMNTLPTWIASDSTEAVHIAEQIGYPVALKLRSPDIPHKSEVQGVMLYLRTANEVQQAANAIFDRVKMAWPQARVHGLLVQSMANRAGAQELRVVVEHDPVFGPLIMLGEGGVEWRPEDQAVVALPPLNMNLARYLVIQGIKSKKIRARSALRPLDVAGLSQLLVQVSNLIVDCPEIQRLDIHPLLASGSEFTALDVTLDISPFEGDNESRLAVRPYPHQLEEWVELKNGERCLFRPILPEDEPQLQQFISRVTKEDLYYRYFSEINEFTHEDLANMTQIDYDREMAFVAVRRIDQTEEILGVTRAISDPDNIDAEFAVLVRSDLKGLGLGRRLMEKLITYTRDHGLQRLNGITMPNNRGMVALARKLGFNVDIQLEEGIVGLTLNLAQREES
B7: Ikbkg 1-355 C54S/K285N (Mus musculus, UniProt O88522); sequence looked up; chain MNKHPWKNQLSEMVQPSGGPAEDQDMLGEESSLGKPAMLHLPSEQGTPETLQRSLEENQELRDAIRQSNQMLRERCEELLHFQVSQREEKEFLMCKFQEARKLVERLSLEKLDLRSQREQALKELEQLKKCQQQMAEDKASVKAQVTSLLGELQESQSRLEAATKDRQALEGRIRAVSEQVRQLESEREVLQQQHSVQVDQLRMQNQSVEAALRMERQAASEEKRKLAQLQAAYHQLFQDYDSHIKSSKGMQLEDLRQQLQQAEEALVAKQELIDKLKEEAEQHNIVMETVPVLKAQADIYKADFQAERHAREKLVEKKEYLQEQLEQLQREFNKLKVGCHESARIEDMRKRHVE
B8: POL30 1-258 (Saccharomyces cerevisiae, UniProt P15873); chain MLEAKFEEASLFKRIIDGFKDCVQLVNFQCKEDGIIAQAVDDSRVLLVSLEIGVEAFQEYRCDHPVTLGMDLTSLSKILRCGNNTDTLTLIADNTPDSIILLFEDTKKDRIAEYSLKLMDIDADFLKIEELQYDSTLSLPSSEFSKIVRDLSQLSDSINIMITKETIKFVADGDIGSGSVIIKPFVDMEHPETSIKLEMDQPVDLTFGAKYLLDIIKGSSLSDRVGIRLSSEAPALFQFDLKSGFLQFFLAPKFNDEE
B9: TGFBI FAS1-4 domain, residues 502-657 R555W (Homo sapiens, UniProt Q15582); chain AGMGTVMDVLKGDNRFSMLVAAIQSAGLTETLNREGVYTVFAPTNEAFRALPPREWSRLLGDAKELANILKYHIGDEILVSGGIGALVRLKSLQGDKLEVSLKNNVVSVNKEPVAEPDIMATNGVVHVITNVLQPPANRPQERGDELADSALEIFKQA
B10: HdeA mature (Escherichia coli, UniProt P0AES9); sequence looked up; chain ADAQKAADNKKPVNSWTCEDFLAVDESFQPTAVGFAEALNNKDKPEDAVLDVQGIATVTPAIVQACTQDKQANFKDKVKGEWDKIKKDM
B11: cooS 1-639 C41S/C49S (Rhodospirillum rubrum, UniProt P31896); chain MTHHDCAHCSSDACATEMLNLAEANSIETAWHRYEKQQPQSGFGSAGLSCRICLKGPCRIDPFGEGPKYGVCGADRDTIVARHLVRMIAAGTAAHSEHGRHIALAMQHISQGELHDYSIRDEAKLYAIAKTLGVATEGRGLLAIVGDLAAITLGDFQNQDYDKPCAWLAASLTPRRVKRLGDLGLLPHNIDASVAQTMSRTHVGCDADPTNLILGGLRVAMADLDGSMLATELSDALFGTPQPVVSAANLGVMKRGAVNIAVNGHNPMLSDIICDVAADLRDEAIAAGAAEGINIIGICCTGHEVMMRHGVPLATNYLSQELPILTGALEAMVVDVQCIMPSLPRIAECFHTQIITTDKHNKISGATHVPFDEHKAVETAKTIIRMAIAAFGRRDPNRVAIPAFKQKSIVGFSAEAVVAALAKVNADDPLKPLVDNVVNGNIQGIVLFVGCNTTKVQQDSAYVDLAKSLAKRNVLVLATGCAAGAFAKAGLMTSEATTQYAGEGLKGVLSAIGTAAGLGGPLPLVMHMGSCVDNSRAVALATALANKLGVDLSDLPLVASAPECMSEKALAIGSWAVTIGLPTHVGSVPPVIGSQIVTKLVTETAKDLVGGYFIVDTDPKSAGDKLYAAIQERRAGLGL
B12: ccmK2 1-102 H82N (Synechococcus elongatus, UniProt Q03511); chain MPIAVGMIETLGFPAVVEAADAMVKAARVTLVGYEKIGSGRVTVIVRGDVSEVQASVSAGLDSAKRVAGGEVLSHHIIARPNENLEYVLPIRYTEAVEQFRM
B13: Arginase 2-364 (Schistosoma mansoni, UniProt Q6WVP6); sequence looked up; chain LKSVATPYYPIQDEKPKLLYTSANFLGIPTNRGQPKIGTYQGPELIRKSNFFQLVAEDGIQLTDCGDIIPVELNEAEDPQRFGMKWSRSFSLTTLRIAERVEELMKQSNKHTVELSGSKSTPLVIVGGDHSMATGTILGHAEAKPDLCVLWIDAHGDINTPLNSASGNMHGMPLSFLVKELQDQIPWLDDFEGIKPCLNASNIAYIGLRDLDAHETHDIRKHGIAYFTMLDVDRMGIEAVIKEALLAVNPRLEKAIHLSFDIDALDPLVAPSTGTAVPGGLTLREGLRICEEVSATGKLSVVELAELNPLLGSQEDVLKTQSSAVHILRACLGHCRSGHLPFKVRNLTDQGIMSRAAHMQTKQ

Substance	method	setting	added	subunits per oligomer
Saci_2020 (Sulfolobus acidocaldarius, UniProt Q4J7B5)	SEC			4
B1 (tnsC 1-503 A225V)	X-ray crystallography		ADP	2
B2 (DPA 6-281)	SEC			2
B3 (TBK1 D135N/E355A)	SEC-MALS			2
B4 (At5g06450 2-206)	X-ray crystallography			6
B5 (CRYBA1)	native MS	abundances relative to monomer		2
MKGMSKMPQFLLVWPREVLDLVRKVAEENGRSVNSEIYQRVMESFKKEGRIGA (Arc repressor 1-53 N11L/R13V (P22 phage, UniProt P03050))	SEC			2
B6 (patZ)	SEC			4
B7 (Ikbkg 1-355 C54S/K285N)	AUC			4
B8 (POL30 1-258)	native gel			3
MKIITVKLPEQFLEAIDELVNTGRYGSRSEVIRAAIGDFIRKELWVTTEE (SiRe_1577 (Saccharolobus islandicus, UniProt F0NFD7); sequence looked up)	SEC			2
B9	cross-linking			2
B10 (HdeA mature)	SEC-MALS			2
B11 (cooS 1-639 C41S/C49S)	SEC-MALS			2
B12 (ccmK2 1-102 H82N)	SEC			6
B13 (Arginase 2-364)	SEC			6
